# Published values pooled from the literature.
# Parts stem from different laboratories: compare values within a part only. Changes are numbered by the printed parent chain.

# Set 1
# Target: Histone acetyltransferase KAT6A, winged helix 1, GST fusion (KAT6A, Homo sapiens, UniProt Q92794, residues 1-85)
# Method: protein binding microarray
# Molecule type: double-stranded DNA, one strand shown
# Medium: in vitro
# Tested at: not given
# Setting: 8-mer, flanks averaged, mean of 2 arrays, mostly near background
# Baseline: not given
# Direction: higher = stronger binding
# Target sequence (chain): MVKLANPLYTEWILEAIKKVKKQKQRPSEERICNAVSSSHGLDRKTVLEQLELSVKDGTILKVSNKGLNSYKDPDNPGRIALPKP
Strand,E-score
AACGGTTC,0.119
CTCTGCTA,-0.0791
AGCGTTTC,0.0411
CACCCCGA,-0.0408
ATGGAGTA,-0.0712

# Set 2
# Target: CCNB3, cyclin fold, Cln2 fusion (human)
# Method: yeast growth competition, sequencing
# Medium: yeast
# Setting: strong parent motif
# Baseline: not given
# Direction: higher = stronger binding
# Starting sequence: BRCA2 docking peptide (human); PSIKRNLLNEFDR; partner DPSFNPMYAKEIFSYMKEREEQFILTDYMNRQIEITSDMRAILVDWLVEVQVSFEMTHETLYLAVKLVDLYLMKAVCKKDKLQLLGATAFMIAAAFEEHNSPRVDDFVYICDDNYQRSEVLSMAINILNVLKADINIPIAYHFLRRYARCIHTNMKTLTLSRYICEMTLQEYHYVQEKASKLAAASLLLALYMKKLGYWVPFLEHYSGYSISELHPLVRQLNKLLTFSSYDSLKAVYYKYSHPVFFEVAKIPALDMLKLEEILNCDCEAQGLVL
Variant,normalised enrichment score
PSRKRNLLNEFDR [I3R],-0.0923
PSIKRNLLTEFDR [N9T],1.21
PSIKRNLINEFDR [L8I],1.36
PSIKRNYLNEFDR [L7Y],0.0244

# Set 3
# Target: ABI1, truncated, D143A, DHFR fusion (Arabidopsis thaliana)
# Method: DHFR PCA, deep sequencing
# Medium: yeast
# Setting: methotrexate growth selection, single substitutions
# Together with: (+)-ABA 17 µM
# Baseline: wild-type fitted maximum
# Direction: higher = stronger binding
# Starting sequence: PYL1, truncated, DHFR fusion (Arabidopsis thaliana); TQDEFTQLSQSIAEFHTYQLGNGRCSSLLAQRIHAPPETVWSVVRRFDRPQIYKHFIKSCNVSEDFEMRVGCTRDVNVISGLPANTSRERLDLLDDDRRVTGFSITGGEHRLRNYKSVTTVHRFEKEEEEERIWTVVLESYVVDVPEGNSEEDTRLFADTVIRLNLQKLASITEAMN; partner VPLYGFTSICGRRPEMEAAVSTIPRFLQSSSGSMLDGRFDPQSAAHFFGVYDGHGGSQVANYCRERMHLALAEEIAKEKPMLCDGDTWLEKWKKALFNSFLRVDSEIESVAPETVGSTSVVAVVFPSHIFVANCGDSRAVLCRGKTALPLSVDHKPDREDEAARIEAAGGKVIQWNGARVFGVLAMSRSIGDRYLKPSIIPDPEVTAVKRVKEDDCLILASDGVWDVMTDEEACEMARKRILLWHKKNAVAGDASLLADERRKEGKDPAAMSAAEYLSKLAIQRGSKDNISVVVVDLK
Variant,relative binding score [%]
V76M,20.1
K58H,70
F47P,-11.9
Y115Q,-12.8
F124P,29.1

# Other studies, line by line
Substance,target,assay,test system,setting,scale,measurement,value
"PhoQ, residues 284 288 289 292 302 303 ASVMEA","PhoP, residues 12 14 15 18 19 NQAHL (Escherichia coli, UniProt P23836)","Sort-seq, refers to: YFP reporter",E. coli,"PhoQ-PhoP variant library, together with: 10 µM Mg2+","baseline: high Mg2+ state, higher = stronger signaling",fold induction,2.59

# A few entries again (set 1):
Strand,E-score
CACCCCGA,-0.0408
ATGGAGTA,-0.0712
